Experimental data gathered from unrelated publications.
Parts stem from different laboratories: compare values within a part only. Changes are numbered by the printed parent chain.

Study 1 — method: DHFR PCA, deep sequencing; sample: yeast; added: (+)-ABA 0.0091 µM; baseline: wild-type fitted maximum; direction: higher = stronger binding
Target: ABI1, truncated, D143A, DHFR fusion (Arabidopsis thaliana)
Setting: methotrexate growth selection, single substitutions
Parent: PYL1, truncated, DHFR fusion (Arabidopsis thaliana); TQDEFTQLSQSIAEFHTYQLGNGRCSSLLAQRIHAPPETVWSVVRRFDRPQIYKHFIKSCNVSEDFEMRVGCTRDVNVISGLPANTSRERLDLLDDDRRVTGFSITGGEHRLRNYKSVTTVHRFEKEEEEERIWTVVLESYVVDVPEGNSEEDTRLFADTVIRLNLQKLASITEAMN
Variant	relative binding score [%]
D153C	-2.18
L82Y	45.6
P146T	18
R90T	2.9
R123T	19.1
I172N	-1.02
I162F	-0.477
R132W	-0.118
W134S	47.3
L156P	0.0323
V136Y	-5.64
S171E	40
R113K	50.1
V121F	-2.03
W41H	-2.81
V121G	-1.27
S59H	3.7
R46D	-1.92
V142C	27
I33R	3.3

Study 2 — method: RNA Bind-n-Seq; form: RNA; sample: in vitro; concentration: 1 µM; setting: whole 134-nt RNA, ends assumed; added: 150 mM KCl; baseline: input library; direction: higher = stronger binding
Target: Ras GTPase-activating protein-binding protein 1, RRM domain (G3BP1, Homo sapiens, UniProt Q13283)
UniProt Q13283, sequence (whole entry, looked up): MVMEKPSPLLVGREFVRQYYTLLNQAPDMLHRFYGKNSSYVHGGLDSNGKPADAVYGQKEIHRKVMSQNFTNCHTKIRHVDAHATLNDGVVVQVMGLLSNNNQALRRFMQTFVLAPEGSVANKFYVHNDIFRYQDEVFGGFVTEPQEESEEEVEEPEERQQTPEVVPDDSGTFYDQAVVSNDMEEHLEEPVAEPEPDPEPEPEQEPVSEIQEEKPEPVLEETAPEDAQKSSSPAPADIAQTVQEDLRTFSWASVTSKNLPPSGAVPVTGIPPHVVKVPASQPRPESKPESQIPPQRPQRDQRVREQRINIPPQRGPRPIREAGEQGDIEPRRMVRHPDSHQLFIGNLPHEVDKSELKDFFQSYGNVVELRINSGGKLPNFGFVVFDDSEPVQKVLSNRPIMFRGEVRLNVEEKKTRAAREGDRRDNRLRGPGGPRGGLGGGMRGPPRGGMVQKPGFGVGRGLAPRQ
Shared flanks, not repeated: GGGAGUUCUACAGUCCGACGAUC … UGGAAUUCUCGGGUGUCAAGG
Sequence	log2 enrichment
AGUCCUGUGCUACACAUCGUAUGUACCGAAUCGGGUUUUUGGGUUUUUGGUUUUUGGGAAAGUAUUAUGUUACGCCGUUCGGAUCUGCAC	-0.256
CUCAAGUCCUGUGCUACACAUCGUAUGUACCGAAUCGGAGGUGGUUUUUUUGGAAAGUAUUAUGUUACGCCGUUCGGAUCUGCACUUCCA	-0.278
GUCCUGUGCUACACAUCGUAUGUACCGAAUCGGGUUUUUGGGAAAAAAAGGGUUUGGGAAAGUAUUAUGUUACGCCGUUCGGAUCUGCAC	-0.0806
CCUCAAGUCCUGUGCUACACAUCGUAUGUACCGAAUCGGGCCGGCCGGGCCGGAAAGUAUUAUGUUACGCCGUUCGGAUCUGCACUUCCA	-0.445
CCUGUGCUACACAUCGUAUGUACCGAAUCGGGGAAAAAGGGGUUUGGGGAAAAAAAGGGGAAAGUAUUAUGUUACGCCGUUCGGAUCUGC	0.553
CCUGUGCUACACAUCGUAUGUACCGAAUCGGGAAAAAAAGGAAAAAAAGGAAAAAAAGGGAAAGUAUUAUGUUACGCCGUUCGGAUCUGC	0.0919
CUCAAGUCCUGUGCUACACAUCGUAUGUACCGAAUCGGUUUGGGUUUGGUUUGGAAAGUAUUAUGUUACGCCGUUCGGAUCUGCACUUCC	-0.228
GCAGGAAGUAAAAACAAAUGGAAAUGCUUCGGAUAGUGGCAGGGGUGGGGGUUGCUAAGGAAAUGGUGGGAUGGGAGUGGGUAAAGAGUU	1.35
CUCAAGUCCUGUGCUACACAUCGUAUGUACCGAAUCGGGUUGGGUUGGGGUUGGAAAGUAUUAUGUUACGCCGUUCGGAUCUGCACUUCC	-0.133

Study 3 — method: competition protein-binding microarray; form: double-stranded DNA, one strand shown; sample: in vitro; concentration: 2 µM; added: Cbf1 competitor, 0.05 µM; direction: higher = stronger binding; shared flanks, not repeated: … GTCTTGATTCGCTTGACGCTGCTG
Target: Phosphate system positive regulatory protein PHO4, full length, GST-tagged (PHO4, Saccharomyces cerevisiae, UniProt P07270, residues 1-312)
Setting: whole 60-bp probe, lowest competitor level
Residues (chain): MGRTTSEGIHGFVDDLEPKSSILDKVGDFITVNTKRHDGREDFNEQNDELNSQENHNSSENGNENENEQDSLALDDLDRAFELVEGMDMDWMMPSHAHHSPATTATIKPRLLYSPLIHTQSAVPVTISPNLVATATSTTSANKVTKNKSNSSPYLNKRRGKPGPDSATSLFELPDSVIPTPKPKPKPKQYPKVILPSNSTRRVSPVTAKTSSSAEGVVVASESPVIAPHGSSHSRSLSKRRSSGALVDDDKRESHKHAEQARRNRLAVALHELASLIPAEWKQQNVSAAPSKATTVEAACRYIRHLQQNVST
Sequence	fluorescence intensity [a.u.]
ATTCTCTATTTGTATCGCATGCGCGGTCGCTGTTCT	8370
AAATTACTAAGTTGACGGGTGGGTGACGCCGTATGA	5100
CGGAGAACAAAAGTAGGCGTGGGTAGTGAAGATCTT	7220
TCAAGGCGGACATACTTCGTGATGGAAGCTCATGTT	5080
GTCTTGTCTCATTGCCCTGTGGGTGTCCCCACTTCA	4950
CTTTCCCGATCTTGTCACCGAACTTTAGCACATTTG	3910
TTTCTTCGACACCATCACGTAAAACAACAACCAGGA	5310
GTCTTGTCTCATTGGCTAGTGGGTGTCCCCACTTCA	4450
ATATTATCTTGCGAGCATGTGCGCTCAATTTCGGGG	10600
CGGGGTTAAGTTTGTGCCGTGGGTGGCTTGCAGCAG	5610
CGTCCTAGTGATTTTCACGTGACGTCCATGAGGAAG	10800
TGATGACGCCACCATCACGTTGCGACAGCGTCTGCT	11100
CGGGAACACTACGCCAACGTGATGGGCAATTGTGCT	9160
GTCTTGTCTCATTGATCAGTGGGTGTCCCCACTTCA	4000
GCAAAAACACCGCAACTCGTGGTGACGGGGTAAGAA	9330
CAGATGTTCGTGTAATGGTACCCGACACTCGATGAG	4700
CCCCCAACTGACACACACGTGAGACCCTGCTGAAAG	14900
CTTTCCCGATCTTTTCACGTGACATTAGCACATTTG	10400
TGTATAGTAATTTGCCACGTGGGACGCTTAAGAAAT	20600

Study 4 — target: CCNB2, cyclin fold, Cln2 fusion (human); method: yeast growth competition, sequencing; sample: yeast; setting: strong parent motif; baseline: not given; direction: higher = stronger binding
Parent: BRCA2 docking peptide (human); PSIKRNLLNEFDR; partner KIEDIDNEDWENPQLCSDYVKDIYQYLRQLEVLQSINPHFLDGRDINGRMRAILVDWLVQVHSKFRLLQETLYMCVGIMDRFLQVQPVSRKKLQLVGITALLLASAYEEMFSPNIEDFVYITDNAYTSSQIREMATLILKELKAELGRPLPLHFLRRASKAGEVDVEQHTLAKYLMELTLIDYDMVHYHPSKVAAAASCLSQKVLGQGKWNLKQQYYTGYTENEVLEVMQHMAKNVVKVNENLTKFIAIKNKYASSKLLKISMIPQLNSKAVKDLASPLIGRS
Variant	normalised enrichment score
PSIKRNLLREFDR [N9R]	3.51
PSIMRNLLNEFDR [K4M]	2.05
PSIKRNTLNEFDR [L7T]	0.305
PSDKRNLLNEFDR [I3D]	-0.241
PCIKRNLLNEFDR [S2C]	3.28
PSIKRDLLNEFDR [N6D]	1.74
PSIKRNLLNEFDF [R13F]	3.78
PSIKRNNLNEFDR [L7N]	-0.949
PSIKRNLLNEFDM [R13M]	3.9
QSIKRNLLNEFDR [P1Q]	3.75
PSIKRNLLNEFRR [D12R]	1.58
PSIKRNLLVEFDR [N9V]	3.75
PIIKRNLLNEFDR [S2I]	2.71
PSIKRNLLNMFDR [E10M]	0.579
PSIKRNLLNQFDR [E10Q]	0.864
PAIKRNLLNEFDR [S2A]	2.86
PSNKRNLLNEFDR [I3N]	-0.121
PSIKRNLLNEGDR [F11G]	0.526
PSIKRNLLNEFNR [D12N]	4.2
PSIKRNLTNEFDR [L8T]	1.64
PSIKRNLLNDFDR [E10D]	3.91
PVIKRNLLNEFDR [S2V]	2.49
PSIKRNILNEFDR [L7I]	0.971
PSIKRNFLNEFDR [L7F]	0.264
PSIKRNLNNEFDR [L8N]	1.22

Mixed results
Molecule	target	assay	system	conditions	how to read	measurement	result
PhoQ, residues 284 288 289 292 302 303 SVTLVV	PhoP, residues 12 14 15 18 19 TQCLL (Escherichia coli, UniProt P23836)	Sort-seq, measured: YFP reporter	E. coli	PhoQ-PhoP variant library, added: 10 µM Mg2+	baseline: high Mg2+ state, higher = stronger signaling	fold induction	5.94
